# Results from different studies.
# Every numbered part comes from another study and shows a few of its results, in no order. “And” joins repeats or separate records; there may be more than shown.

# Series 1 — effect on: binding; method: radioligand binding; concentration: 10 µM
# Target: Muscarinic acetylcholine receptor M5 (CHRM5, Homo sapiens, UniProt P08912)
# Sequence of UniProt P08912 (whole entry, looked up): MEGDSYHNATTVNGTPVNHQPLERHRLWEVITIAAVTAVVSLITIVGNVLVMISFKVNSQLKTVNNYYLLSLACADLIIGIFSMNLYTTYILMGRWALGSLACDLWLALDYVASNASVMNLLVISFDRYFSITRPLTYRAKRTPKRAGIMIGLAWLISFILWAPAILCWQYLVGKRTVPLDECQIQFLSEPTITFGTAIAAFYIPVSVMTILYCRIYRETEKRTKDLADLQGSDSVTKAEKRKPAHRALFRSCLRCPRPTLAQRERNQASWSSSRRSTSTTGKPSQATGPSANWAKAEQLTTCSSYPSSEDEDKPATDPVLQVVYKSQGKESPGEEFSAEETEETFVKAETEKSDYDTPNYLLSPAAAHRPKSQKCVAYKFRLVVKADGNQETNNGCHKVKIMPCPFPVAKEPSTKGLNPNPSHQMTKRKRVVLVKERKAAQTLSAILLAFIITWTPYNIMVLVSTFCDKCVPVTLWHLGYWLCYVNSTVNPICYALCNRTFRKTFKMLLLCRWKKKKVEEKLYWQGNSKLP
SMILES,inhibition
C[C@H](NC(=O)c1cnc2n1[C@](C)(Cc1ccc(C#N)cc1)C(=O)N2c1cc(Cl)c(F)c(Cl)c1)C(=O)NC1(c2ccccn2)CC1,-11.8%
COc1cccc(CNC(=O)c2nc3scc(COCc4ccc(C(=O)O)cc4)c3c(=O)[nH]2)c1,-7.42%
COCc1nc2cnc3cc(-c4c(C)noc4C)c(OC[C@H]4CCNC4)cc3c2n1[C@H](C)c1ccccc1,24.6%
CN(C)C(=O)Cn1cc(-c2nc([C@@](C)(c3ccc(-c4cnc(N)nc4)cc3)C3CC3)no2)cn1,5.21%
Cc1c(N2CCCC2)nc2ccc(Br)cc2c1C(=O)NC[C@H](CCC(=O)O)c1ccccc1Cl,9.92%
Cc1nc(Cc2cccc(C(F)(F)F)c2)sc1-c1ccc(C(N)=O)nc1,11.2%
CC1=C(C#N)C(c2ccc3c(c2)c(NC(=O)c2ccccc2C)nn3C)C(C#N)=C(C)N1,6.82%
CNC(=O)c1ccc(Nc2ncc(C(F)(F)F)c(NCc3nccnc3N(C)S(C)(=O)=O)n2)cc1,5.41%
C[C@@H]1CN(c2cc(-c3nn(C)c4ccc(OC5(C)CC5)cc34)ncn2)C[C@H](C)O1,2.87%
O=C1CCc2cc(Nc3cc(OC4CCOCC4)c([N+](=O)[O-])cc3Cl)ccc2N1,12.6%

# Series 2 — method: protein binding microarray; form: double-stranded DNA, one strand shown; matrix: in vitro; concentration: not given; relative to: not given; direction: higher = stronger binding
# Target: Histone acetyltransferase KAT6A, both winged helices, GST fusion (KAT6A, Homo sapiens, UniProt Q92794, residues 1-181)
# Notes: 8-mer, flanks averaged, mean of 2 arrays, mostly near background
# Target sequence (chain): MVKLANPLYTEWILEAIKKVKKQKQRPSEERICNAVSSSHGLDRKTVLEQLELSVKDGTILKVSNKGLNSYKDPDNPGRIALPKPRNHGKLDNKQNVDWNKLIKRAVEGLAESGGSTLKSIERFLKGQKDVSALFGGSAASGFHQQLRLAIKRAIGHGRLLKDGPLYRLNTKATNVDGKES
Oligonucleotide,E-score
CGCTACGA,0.15
CGAGTGCG,0.189
CACTTACC,0.0166
GTGTGAGA,-0.154
GATCACTA,0.0678
CAAACAAA,-0.238
GTCCCAAA,-0.069
GAGGTGCA,-0.0557

# Further values, each from its own experiment
Substance,tested on,assay,system,setting,scale,endpoint,value
"PhoQ, residues 284 288 289 292 302 303 AGHLVA","PhoP, residues 12 14 15 18 19 LYHSL (Escherichia coli, UniProt P23836)","Sort-seq, refers to: YFP reporter",E. coli,"PhoQ-PhoP variant library, added: 10 µM Mg2+","relative to: high Mg2+ state, higher = stronger signaling",fold induction,3.13
CN(C(=O)c1ccn2ncc(-c3ccc(C(N)=O)cc3)c2c1)c1ccc(C#N)cn1,Cryptosporidium parvum,time-kill,"HCT-8, nanoluciferase-expressing","0.00102 µM, 48 h",higher = more parasites,parasite luminescence,167000 RLU and 256000 RLU
CCCNC(=O)NS(=O)(=O)c1ccc(Cl)cc1,mouse MPNST tumor cells,"high-content nuclear imaging, refers to: cell number",,"10 µM, 12 h, mean of 2 replicates","relative to: plate mean, higher = more cells",nuclei count,1.34 z-score
COc1cc(C(=O)N2CCC(N3CCN(C)CC3)CC2)ccc1Nc1ncc2c(n1)N(C)c1ccccc1C(=O)N2C,WNK1/WNK2 (mouse),"probe labelling, inhibitor, KiNativ ActivX ADP probe",mouse brain lysate,"0.1 µM, ATP loop peptide GSFkTVYK",,inhibition,7.8%
CC1=C(C(=O)Nc2cc(Cl)ccc2Cl)C(c2ccco2)C2=C(CCCC2=O)N1 (stereo not drawn),mouse MPNST tumor cells,"high-content nuclear imaging, refers to: cell number",,"10 µM, 12 h, mean of 2 replicates","relative to: plate mean, higher = more cells",nuclei count,1.22 z-score
CCOC(=O)c1cccc(NC(=O)N2Cc3c(sc4c3CCCC4)-n3cccc3C2c2cccc(Cl)c2)c1 (stereo not drawn),,,"mouse, microsomes or S9","2 µM, 0.5 h",,remaining compound,37%

# Some of these lines once more (series 1):
SMILES,inhibition
C[C@H](NC(=O)c1cnc2n1[C@](C)(Cc1ccc(C#N)cc1)C(=O)N2c1cc(Cl)c(F)c(Cl)c1)C(=O)NC1(c2ccccn2)CC1,-11.8%
COc1cccc(CNC(=O)c2nc3scc(COCc4ccc(C(=O)O)cc4)c3c(=O)[nH]2)c1,-7.42%
